Measured values gathered from unrelated publications.
Lines come from different studies, so protocols differ. ± gives the spread as reported.
ampC: Beta-lactamase (ampC, Escherichia coli K-12, UniProt P00811)
Sequence of UniProt P00811 (whole entry, looked up): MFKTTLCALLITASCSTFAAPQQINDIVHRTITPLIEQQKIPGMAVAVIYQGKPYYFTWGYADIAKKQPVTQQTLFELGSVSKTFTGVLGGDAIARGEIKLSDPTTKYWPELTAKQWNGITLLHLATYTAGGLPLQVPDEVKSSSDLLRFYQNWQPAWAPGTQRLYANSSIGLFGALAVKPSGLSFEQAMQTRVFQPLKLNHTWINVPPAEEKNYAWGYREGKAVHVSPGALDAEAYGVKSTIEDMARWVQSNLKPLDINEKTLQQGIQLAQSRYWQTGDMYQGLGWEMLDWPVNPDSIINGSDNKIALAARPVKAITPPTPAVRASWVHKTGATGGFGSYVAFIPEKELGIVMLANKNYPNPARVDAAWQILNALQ
ERBB2: Receptor tyrosine-protein kinase erbB-2 (ERBB2, Homo sapiens, UniProt P04626)
Sequence of UniProt Q96SW2 (whole entry, looked up): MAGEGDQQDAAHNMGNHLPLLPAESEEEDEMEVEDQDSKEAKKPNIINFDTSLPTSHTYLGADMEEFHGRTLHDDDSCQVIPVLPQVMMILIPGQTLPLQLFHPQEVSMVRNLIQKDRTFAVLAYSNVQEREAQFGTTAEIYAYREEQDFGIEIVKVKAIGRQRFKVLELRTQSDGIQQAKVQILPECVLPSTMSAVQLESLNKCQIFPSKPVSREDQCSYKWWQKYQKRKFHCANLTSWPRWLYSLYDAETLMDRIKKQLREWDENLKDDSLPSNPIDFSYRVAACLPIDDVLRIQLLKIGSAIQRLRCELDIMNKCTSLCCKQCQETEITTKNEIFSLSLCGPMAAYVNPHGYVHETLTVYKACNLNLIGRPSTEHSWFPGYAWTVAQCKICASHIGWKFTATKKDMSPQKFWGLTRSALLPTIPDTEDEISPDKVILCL
Sequence of UniProt P0C264 (whole entry, looked up): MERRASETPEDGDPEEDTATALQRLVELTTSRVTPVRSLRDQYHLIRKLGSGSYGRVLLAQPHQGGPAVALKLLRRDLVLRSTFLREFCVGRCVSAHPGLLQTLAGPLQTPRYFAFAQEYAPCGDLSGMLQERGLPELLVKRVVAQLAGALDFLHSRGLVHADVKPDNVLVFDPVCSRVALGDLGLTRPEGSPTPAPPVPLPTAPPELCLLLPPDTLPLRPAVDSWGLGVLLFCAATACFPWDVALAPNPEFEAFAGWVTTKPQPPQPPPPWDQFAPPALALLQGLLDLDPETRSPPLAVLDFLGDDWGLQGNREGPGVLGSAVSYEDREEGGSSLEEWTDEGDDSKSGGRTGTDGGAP
Sequence of UniProt P18564 (whole entry, looked up): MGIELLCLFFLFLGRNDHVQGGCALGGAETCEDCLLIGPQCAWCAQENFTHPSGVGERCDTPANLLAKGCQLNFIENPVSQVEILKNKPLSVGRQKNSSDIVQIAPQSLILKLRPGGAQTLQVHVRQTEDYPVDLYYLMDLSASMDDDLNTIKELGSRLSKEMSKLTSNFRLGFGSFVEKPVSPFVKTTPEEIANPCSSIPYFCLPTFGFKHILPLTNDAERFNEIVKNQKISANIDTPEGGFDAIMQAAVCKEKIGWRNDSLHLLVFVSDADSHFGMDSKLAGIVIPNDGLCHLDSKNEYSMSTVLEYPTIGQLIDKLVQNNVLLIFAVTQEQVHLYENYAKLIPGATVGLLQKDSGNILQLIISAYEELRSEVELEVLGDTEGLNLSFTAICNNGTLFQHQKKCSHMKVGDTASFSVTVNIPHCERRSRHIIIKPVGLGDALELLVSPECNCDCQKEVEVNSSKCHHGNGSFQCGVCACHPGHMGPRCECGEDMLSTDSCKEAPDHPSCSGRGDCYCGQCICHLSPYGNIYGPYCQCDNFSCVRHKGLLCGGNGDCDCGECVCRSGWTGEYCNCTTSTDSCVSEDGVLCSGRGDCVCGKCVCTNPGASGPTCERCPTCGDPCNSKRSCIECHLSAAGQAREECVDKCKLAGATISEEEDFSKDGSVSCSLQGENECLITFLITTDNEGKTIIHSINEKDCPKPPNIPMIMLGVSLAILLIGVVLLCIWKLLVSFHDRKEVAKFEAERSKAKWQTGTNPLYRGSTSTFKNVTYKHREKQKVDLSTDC
Sequence of UniProt P16885 (whole entry, looked up): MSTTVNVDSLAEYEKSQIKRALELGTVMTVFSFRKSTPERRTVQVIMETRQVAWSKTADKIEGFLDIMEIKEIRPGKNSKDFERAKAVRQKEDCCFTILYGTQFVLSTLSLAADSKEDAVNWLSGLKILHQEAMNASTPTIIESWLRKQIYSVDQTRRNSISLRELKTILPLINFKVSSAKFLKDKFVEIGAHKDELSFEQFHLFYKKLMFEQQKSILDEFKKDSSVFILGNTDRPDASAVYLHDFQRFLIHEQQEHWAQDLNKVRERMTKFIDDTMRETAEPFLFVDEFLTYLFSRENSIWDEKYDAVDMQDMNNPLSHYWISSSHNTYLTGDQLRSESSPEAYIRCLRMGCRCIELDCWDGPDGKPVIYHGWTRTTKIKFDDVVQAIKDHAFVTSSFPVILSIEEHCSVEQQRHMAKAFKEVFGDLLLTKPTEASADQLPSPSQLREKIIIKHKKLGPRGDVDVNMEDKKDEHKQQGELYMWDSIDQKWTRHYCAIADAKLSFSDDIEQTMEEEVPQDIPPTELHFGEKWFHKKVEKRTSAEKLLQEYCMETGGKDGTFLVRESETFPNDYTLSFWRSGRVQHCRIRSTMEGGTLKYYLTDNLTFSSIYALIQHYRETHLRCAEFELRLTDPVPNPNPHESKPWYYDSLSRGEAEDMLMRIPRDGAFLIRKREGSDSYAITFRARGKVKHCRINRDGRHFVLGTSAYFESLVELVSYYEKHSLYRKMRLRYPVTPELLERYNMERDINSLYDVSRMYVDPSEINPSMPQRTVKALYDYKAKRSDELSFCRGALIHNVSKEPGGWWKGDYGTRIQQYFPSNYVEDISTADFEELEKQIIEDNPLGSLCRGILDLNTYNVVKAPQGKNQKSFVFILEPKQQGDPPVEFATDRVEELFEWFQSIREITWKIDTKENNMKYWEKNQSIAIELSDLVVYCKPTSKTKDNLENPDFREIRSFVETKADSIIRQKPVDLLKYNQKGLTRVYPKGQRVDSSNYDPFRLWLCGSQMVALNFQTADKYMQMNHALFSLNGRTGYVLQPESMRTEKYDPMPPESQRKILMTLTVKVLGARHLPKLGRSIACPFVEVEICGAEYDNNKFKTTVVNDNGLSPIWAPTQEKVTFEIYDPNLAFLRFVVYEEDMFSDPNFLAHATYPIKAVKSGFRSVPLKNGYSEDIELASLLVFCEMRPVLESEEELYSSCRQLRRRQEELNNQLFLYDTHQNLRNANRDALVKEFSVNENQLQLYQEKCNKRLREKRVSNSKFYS
Sequence of UniProt P06756 (whole entry, looked up): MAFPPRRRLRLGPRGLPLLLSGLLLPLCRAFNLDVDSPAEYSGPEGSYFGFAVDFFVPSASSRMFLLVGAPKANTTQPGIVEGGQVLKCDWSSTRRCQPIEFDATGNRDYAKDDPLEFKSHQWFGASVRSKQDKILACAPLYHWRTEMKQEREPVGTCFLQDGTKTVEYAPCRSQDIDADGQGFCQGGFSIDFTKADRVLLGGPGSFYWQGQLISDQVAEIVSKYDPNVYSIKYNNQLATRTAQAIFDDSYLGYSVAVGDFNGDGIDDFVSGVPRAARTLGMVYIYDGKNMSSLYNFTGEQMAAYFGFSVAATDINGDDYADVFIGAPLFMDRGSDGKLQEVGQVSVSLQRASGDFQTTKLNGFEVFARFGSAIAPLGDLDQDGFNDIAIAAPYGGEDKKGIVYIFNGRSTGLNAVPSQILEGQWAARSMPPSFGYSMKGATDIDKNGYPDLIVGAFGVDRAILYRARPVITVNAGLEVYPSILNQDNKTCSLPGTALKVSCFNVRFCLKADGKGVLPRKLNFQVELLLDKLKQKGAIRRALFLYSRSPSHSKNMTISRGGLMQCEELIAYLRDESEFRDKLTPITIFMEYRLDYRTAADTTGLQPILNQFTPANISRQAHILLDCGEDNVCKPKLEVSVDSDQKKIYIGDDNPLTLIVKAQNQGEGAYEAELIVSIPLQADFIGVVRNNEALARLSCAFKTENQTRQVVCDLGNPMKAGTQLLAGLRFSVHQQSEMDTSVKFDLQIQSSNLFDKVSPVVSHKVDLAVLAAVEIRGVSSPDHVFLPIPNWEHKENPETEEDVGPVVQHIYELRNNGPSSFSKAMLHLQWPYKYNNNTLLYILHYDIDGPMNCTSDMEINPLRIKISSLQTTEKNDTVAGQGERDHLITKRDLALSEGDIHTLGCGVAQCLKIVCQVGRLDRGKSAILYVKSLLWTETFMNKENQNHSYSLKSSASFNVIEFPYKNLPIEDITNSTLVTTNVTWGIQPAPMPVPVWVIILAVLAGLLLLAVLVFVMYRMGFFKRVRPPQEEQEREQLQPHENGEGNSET
Sequence of UniProt Q8N3J6 (whole entry, looked up): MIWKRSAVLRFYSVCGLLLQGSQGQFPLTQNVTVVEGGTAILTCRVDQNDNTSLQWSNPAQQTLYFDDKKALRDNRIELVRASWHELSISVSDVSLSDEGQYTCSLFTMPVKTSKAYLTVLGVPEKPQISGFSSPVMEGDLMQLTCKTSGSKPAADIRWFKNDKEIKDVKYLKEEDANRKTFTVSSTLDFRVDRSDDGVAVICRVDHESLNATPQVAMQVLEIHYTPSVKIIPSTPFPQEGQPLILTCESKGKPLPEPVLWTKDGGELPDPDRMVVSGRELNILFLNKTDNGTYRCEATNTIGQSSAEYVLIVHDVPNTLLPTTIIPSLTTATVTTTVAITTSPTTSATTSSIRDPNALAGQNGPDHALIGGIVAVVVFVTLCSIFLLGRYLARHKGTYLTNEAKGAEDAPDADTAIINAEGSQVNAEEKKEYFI

For CSCC[C@H](NC(=O)CNC(=O)[C@H](CCCNC(=N)N)NC(=O)[C@H](C)NC(=O)[C@@H](NC(=O)[C@H](CCC(N)=O)NC(=O)[C@H](Cc1ccc(OP(=O)(O)O)cc1)NC(=O)[C@H](C)NC(=O)[C@H](CS)NC(=O)[C@H](CO)NC(=O)[C@@H](NC(=O)[C@H](CC(C)C)NC(=O)[C@H](CC(=O)O)NC(=O)[C@H](CCCCN)NC(=O)[C@H](CO)NC(=O)[C@H](CO)NC(=O)c1ccc2c(c1)C(=O)OC21c2ccc(N(C)C)cc2Oc2cc(N(C)C)ccc21)C(C)C)C(C)C)C(=O)N[C@@H](CCC(=O)O)C(=O)N[C@@H](CC(=O)O)C(=O)O, the Kd was 1.42 µM (1-phosphatidylinositol 4,5-bisphosphate phosphodiesterase gamma-2, SH2 domain (PLCG2, Homo sapiens, UniProt P16885); binding).
For C=CCN=CC1C(=O)CC(C)(C)CC1=O, the Kd was 1400 µM (ampC).
CCCC[C@@H]1NC(=O)[C@H](Cc2ccc(O)cc2)NC(=O)[C@@H]2CCCN2C(=O)[C@H](CC(=O)O)NC(=O)[C@H](C)NC(=O)[C@H](Cc2ccccc2)NC(=O)[C@@H]2CSCCC(=O)N3CN(CN(C3)C(=O)CCSC[C@H](NC(C)=O)C(=O)N[C@@H]([C@@H](C)CC)C(=O)N[C@@H](CCC(=O)O)C(=O)N[C@@H](CCC(=O)O)C(=O)NCC(=O)N[C@@H](CCC(N)=O)C(=O)N[C@@H](Cc3ccc(O)cc3)C(=O)N2)C(=O)CCSC[C@@H](C(N)=O)NC1=O has a Kd of 0.00812 µM (Tumor necrosis factor receptor superfamily member 9 (Homo sapiens, UniProt Q07011); binding, SPR).
The Kd of COc1ccccc1C1(O)C(=O)Nc2ccc(F)cc21 (centres unmarked) is reported as 2000 µM (ampC).
With CC(C)[C@H](NC(=O)[C@H](CCCNC(=N)N)NC(=O)[C@H](Cc1c[nH]c2ccccc12)NC(=O)CN)C(=O)N[C@@H](CO)C(=O)N[C@@H](CCC(=O)O)C(=O)N[C@@H](Cc1ccccc1)C(=O)NCC(=O)NCC(=O)NCC(=O)N[C@@H](CO)C(=O)N[C@@H](CCCCNC(=O)CCCC[C@@H]1SC[C@@H]2NC(=O)N[C@@H]21)C(=O)O the Kd was roughly 0.007 µM (cowpea mosaic virus; competitive phage ELISA).
O=C(N[C@@H]1c2ccccc2C[C@H]1N1CCCC1)c1ccc(-c2ccnc3[nH]ccc23)nc1 gave a Kd of 0.105 µM (SBK3 (Homo sapiens, UniProt P0C264); binding, competition with immobilised ligand).
C=CC1CN(Cc2ccccn2)C(=O)C2CCCC1N2S(=O)(=O)c1cc(Cl)cc(Cl)c1 (centres unmarked) has a Kd of 0.038 ± 0.006 µM (uncharacterized protein, residues 23-253 (Pseudomonas aeruginosa, UniProt Q9HYX8); binding, competitive fluorescence polarization; 30 min, protein 40 nM, together with: fluorescent tracer 1 nM).
CC(C)C[C@H](NC(=O)[C@H](CCC(=O)O)NC(=O)[C@@H](N)Cc1ccccc1)C(=O)N[C@@H](CCC(=O)O)C(=O)N[C@@H](CCCNC(=N)N)C(=O)N[C@@H](CCCNC(=N)N)C(=O)N[C@@H](Cc1ccccc1)C(=O)N[C@@H](CCCCN)C(=O)N[C@@H](CCC(N)=O)C(=O)N[C@@H](CCC(N)=O)C(=O)O has a Kd of 3.88 µM (PDE1C promoter DNA; binding, microscale thermophoresis).
The Kd of C[C@@H](O)[C@H](NC(=O)c1ccc(C#CC#Cc2ccccc2)cc1)C(=O)NCC1(C)NC(=O)NC1=O (some centres unmarked) is reported as greater than 100 µM (UDP-3-O-acyl-N-acetylglucosamine deacetylase (Pseudomonas aeruginosa, UniProt P47205, C40S); thermal shift).
CCCC[C@H](NC(=O)[C@H](CCC(=O)O)NC(=O)[C@H](CCCCN)NC(=O)[C@H](CO)NC(=O)[C@H](Cc1ccccc1)NC(C)=O)C(=O)N[C@@H](CCCNC(=N)N)C(=O)N[C@@H](CC(N)=O)C(=O)N[C@@H](CCCNC(=N)N)C(=O)N[C@@H](Cc1ccncc1)C(=O)N[C@@H](Cc1c[nH]c2ccccc12)C(=O)N[C@@H](CCCC(=O)NCCN(CC(=O)NCCN(CC(=O)NCCN(CC(=O)NCCN(CC(N)=O)C(=O)Cn1cnc2c(=O)[nH]c(N)nc21)C(=O)Cn1ccc(N)nc1=O)C(=O)Cn1ccc(N)nc1=O)C(=O)Cn1cnc2c(=O)[nH]c(N)nc21)C(=O)N[C@@H](CS)C(=O)N[C@@H](C)C(=O)N[C@@H](CC(C)C)C(=O)N[C@@H](CC(=O)O)C(=O)N1CCC[C@H]1C(=O)N[C@@H](CC(N)=O)C(=O)N[C@@H](CC(C)C)C(=O)N[C@H](C(=O)N[C@@H](CC(N)=O)C(=O)N[C@@H](CCC(N)=O)C(=O)N[C@@H](CCC(N)=O)C(=O)N[C@@H](CCCCN)C(=O)N[C@@H](CCCNC(=N)N)C(=O)N[C@@H](C)C(=O)N[C@@H](CCCCNC(=O)CN(CCNC(=O)CN(CCNC(=O)CN(CCNC(=O)CN(CCNC(=O)[C@H](CCCNC(=N)N)NC(C)=O)C(=O)Cn1ccc(N)nc1=O)C(=O)Cn1cnc2c(=O)[nH]c(N)nc21)C(=O)Cn1cnc2c(=O)[nH]c(N)nc21)C(=O)Cn1ccc(N)nc1=O)C(=O)N[C@H](C(=O)N[C@@H](CCCNC(=N)N)C(=O)N[C@@H](CO)C(=O)N[C@H](C(=O)N[C@@H](Cc1ccc(O)cc1)C(=O)N[C@@H](CCC(=O)O)C(=O)N[C@@H](CCC(=O)O)C(=O)NCC(=O)N[C@@H](CCC(=O)O)C(N)=O)[C@@H](C)CC)[C@@H](C)CC)[C@@H](C)O has a Kd of 0.017 µM (ERBB2; binding, SPR).
For CC(=O)N[C@@H](CO)C(=O)N[C@@H](Cc1ccccc1)C(=O)N[C@@H](CCC(=O)O)C(=O)N[C@@H](Cc1ccccc1Cl)C(=O)N1CCC[C@H]1C(=O)N1CCC[C@H]1C(=O)N1CC[C@@H]2C=C[C@H]3CC[C@@H](C(=O)N[C@H](C(=O)N[C@@H](CCC(=O)O)C(=O)N[C@@H](CC(=O)O)C(=O)N[C@@H](CCC(=O)O)C(=O)N[C@@H](CC(C)C)C(N)=O)[C@@H](C)O)N3C(=O)[C@H]21, the Kd was 0.21 µM (Protein enabled homolog (ENAH, UniProt Q8N8S7); binding, fluorescence).
With CC[C@H](C)[C@H](NC(=O)[C@H](CNC(=O)COCCNC(=O)CN(CCNC(=O)CN(CCNC(=O)CN(CCNC(=O)CN(CCNC(=O)[C@H](CCCNC(=N)N)NC(C)=O)C(=O)Cn1ccc(N)nc1=O)C(=O)Cn1cnc2c(=O)[nH]c(N)nc21)C(=O)Cn1cnc2c(=O)[nH]c(N)nc21)C(=O)Cn1ccc(N)nc1=O)NC(=O)[C@H](C)NC(=O)[C@H](CCCNC(=N)N)NC(=O)[C@H](CCCCN)NC(=O)[C@H](CCC(N)=O)NC(=O)[C@H](CCC(N)=O)NC(=O)[C@H](CC(N)=O)NC(=O)[C@@H](NC(=O)[C@H](CC(C)C)NC(=O)[C@H](CC(N)=O)NC(=O)[C@@H]1CCCN1C(=O)[C@H](CC(=O)O)NC(=O)[C@H](CC(C)C)NC(=O)[C@H](C)NC(=O)[C@H](CS)NC(=O)[C@H](CCCC(=O)NCC(=O)NCCN(CC(=O)NCCN(CC(=O)NCCN(CC(=O)NCCN(CC(=O)N[C@@H](CCCNC(=N)N)C(N)=O)C(=O)Cn1cnc2c(=O)[nH]c(N)nc21)C(=O)Cn1ccc(N)nc1=O)C(=O)Cn1ccc(N)nc1=O)C(=O)Cn1cnc2c(=O)[nH]c(N)nc21)NC(=O)[C@H](Cc1c[nH]c2ccccc12)NC(=O)[C@H](Cc1ccc(O)cc1)NC(=O)[C@H](CCCNC(=N)N)NC(=O)[C@H](CC(N)=O)NC(=O)[C@H](CCCNC(=N)N)NC(=O)[C@H](CCSC)NC(=O)[C@H](CCC(=O)O)NC(=O)[C@H](CCCCN)NC(=O)[C@H](CO)NC(=O)[C@H](Cc1ccccc1)NC(C)=O)[C@@H](C)O)C(=O)N[C@@H](CCCNC(=N)N)C(=O)N[C@@H](CO)C(=O)N[C@H](C(=O)N[C@@H](Cc1ccc(O)cc1)C(=O)N[C@@H](CCC(=O)O)C(=O)N[C@@H](CCC(=O)O)C(=O)NCC(=O)N[C@@H](CCC(=O)O)C(N)=O)[C@@H](C)CC the Kd was 0.047 µM (ERBB2; binding, SPR).
With CC(C)C[C@H](NC(=O)[C@@H]1CCCN1C(=O)[C@H](C)NC(=O)[C@H](CCC(=O)O)NC(=O)[C@@H](NC(=O)[C@@H](N)CC(C)C)[C@@H](C)O)C(=O)N[C@H]1CC(=O)NC1=O the Kd was 0.0564 µM (Protein cereblon, with DDB1 (CRBN, Homo sapiens, UniProt Q96SW2); binding).
C[C@@H](O)[C@H](NC(=O)C(NC(=O)[C@@H](N)CS)C1CC1)C(=O)N[C@@H](CCCNC(=N)N)C(=O)NCC(=O)N[C@@H](CC(=O)O)C(=O)N[C@@H](Cc1ccc(O)cc1F)C(=O)N1CC(F)(F)CC1C(N)=O (some centres unmarked) has a Kd of 63.8 µM (Integrin alpha-V/beta-6 (Homo sapiens, UniProt P06756+P18564); binding, BLI).
For CC[C@H](C)[C@H](NC(=O)[C@H](CCC(=O)O)NC(=O)[C@H](CCC(=O)O)NC(=O)[C@H](Cc1ccccc1)NC(=O)[C@H](CCCCN)NC(=O)[C@@H]1CCCN1C(=O)[C@H](Cc1c[nH]cn1)NC(=O)[C@H](CCCCN)NC(=O)[C@H](CO)NC(=O)[C@H](CC(C)C)NC(=O)[C@H](Cc1c[nH]cn1)NC(C)=O)C(=O)N[C@@H](CC(C)C)C(=O)N[C@H](C(=O)N[C@@H](CCCNC(=N)N)C(=O)N[C@@H](CC(C)C)C(=O)N[C@@H](CCCNC(=N)N)C(=O)N[C@@H](CC(C)C)C(=O)N[C@@H](CCC(N)=O)C(N)=O)[C@@H](C)O, the Kd was 5.56 µM (Calmodulin-1, C-lobe (CALM1, Homo sapiens, UniProt P0DP23); ITC; C-lobe, together with: 1 mM CaCl2).
CSCC[C@@H](N)C(=O)N[C@H](C)C(=O)N[C@H](C)C(=O)N[C@@H](C(=O)N[C@H](C)C(=O)NCC(=O)N[C@H](CC(C)C)C(=O)N[C@H](Cc1ccc(O)cc1)C(=O)NCC(=O)N[C@H](CC(C)C)C(=O)NCC(=O)N[C@H](CCC(=O)O)C(=O)N[C@H](CC(=O)O)C(=O)N[C@H](CCCNC(=N)N)C(=O)N[C@H](CCC(N)=O)C(=O)N[C@H](Cc1c[nH]cn1)C(=O)N[C@H](CCCNC(=N)N)C(=O)N[C@H](CCCCN)C(=O)N[C@H](CCCCN)C(=O)N[C@H](CCC(N)=O)C(N)=O)C(C)C gave a Kd of 6.4 µM (Sh, DEL6-46 (Drosophila melanogaster, UniProt P08510); ion current, blocker, inside-out patch clamp; +50 mV).
With CC[C@H](C)[C@@H]1NC(=O)[C@@H]2CCCN2C(=O)[C@H](Cc2c[nH]c3ccccc23)NC(=O)[C@H](CO)NC(=O)[C@H](Cc2c[nH]c3ccccc23)NC(=O)[C@H](CC(N)=O)NC(=O)[C@H](CCCCN)NC(=O)[C@H](CCSC)NC(=O)[C@@H]2CSCCC(=O)N3CN(CN(C3)C(=O)CCSC[C@H](NC(=O)[C@H](C)N)C(=O)N3CCC[C@H]3C(=O)N[C@@H](Cc3ccccc3)C(=O)NCC(=O)N2)C(=O)CCSC[C@@H](C(=O)N[C@H](C(=O)N[C@@H](CC(N)=O)C(=O)N[C@@H](CCCCN)C(=O)N(C)CC(=O)N(C)CC(=O)N(C)CC(=O)N(C)CC(=O)N(C)CC(=O)N(C)CC(=O)N[C@@H](CCCCNC(=O)c2ccc(C(=O)O)c(-c3c4ccc(=O)cc-4oc4cc(O)ccc34)c2)C(N)=O)[C@@H](C)O)NC(=O)[C@H](Cc2c[nH]c3ccccc23)NC1=O the Kd was greater than 2 µM (Cell adhesion molecule 2 (CADM2, Homo sapiens, UniProt Q8N3J6); fluorescence polarization).
